# Measured values pooled from the literature.
# Protocols differ between the studies behind these lines. Numbers after ± are the reported error.
Structure (SMILES),test system,conditions,how to read,measurement,value
Nc1ncn([C@@H]2O[C@H](CO)[C@@H](O)[C@H]2O)c(=O)n1,"male Rowett nude rat, lung tissue","inhaled vs intraperitoneal, 0.6 vs 2 mg/kg",baseline: aerosol over intraperitoneal,half-life ratio,13 fold
COc1cc2c3c(c4cc(OC)c(OC)cc4c2cc1OC)CN1CCC[C@@H]1C3,"Sprague-Dawley rats, male","oral, dose not given",,half-life,30.7 h
C[C@H]1CNCCc2ccc(Cl)cc21,"male Sprague-Dawley rat, plasma","subcutaneous, pimavanserin 0.5 + lorcaserin 0.5 mg/kg, pimavanserin 15 min earlier",,half-life,1.74 ± 0.11 h
CN1CC[C@@]23CCCC[C@@H]2[C@@H]1Cc1ccc(O)cc13,"Wistar rat, both sexes, plasma","oral, 5 mg/kg DEM, DEM 2 h after pretreatment, added: TCE 100 mg/kg single pretreatment",,half-life,8.25 ± 3.45 h
NC1(c2ccccc2Cl)CCCCC1=O (racemic),"male Wistar rats, plasma","intraperitoneal, 40 mg/kg once daily for 14 days, day 14",,half-life,4.4 ± 5.5 h
CCCC(=O)OCSc1ccccc1C(=O)NCCC(N)=O,"Sprague-Dawley rat, male, plasma","intravenous, 50 mg/kg",,half-life,0.4 ± 0.2 h
CNC1(c2ccccc2Cl)CCCCC1=O (racemic),"male Wistar rats, plasma","intraperitoneal, 40 mg/kg single dose",,half-life,10.2 ± 5.2 h
CN1C(=O)CC(=O)N(c2ccccc2)c2cc(Cl)ccc21,"Sprague Dawley rat, brain","intraperitoneal, 37 mg/kg",,half-life,1.25 h

# A few entries again:
Structure (SMILES),test system,conditions,how to read,measurement,value
NC1(c2ccccc2Cl)CCCCC1=O (racemic),"male Wistar rats, plasma","intraperitoneal, 40 mg/kg once daily for 14 days, day 14",,half-life,4.4 ± 5.5 h
